Results collected from several papers.
Lines come from different studies, so protocols differ. Values joined by “and” are separate records of one study, mostly repeats; a detail may differ. ± marks the error that the study gave.
Chain of UniProt A5GZW8 (whole entry, looked up): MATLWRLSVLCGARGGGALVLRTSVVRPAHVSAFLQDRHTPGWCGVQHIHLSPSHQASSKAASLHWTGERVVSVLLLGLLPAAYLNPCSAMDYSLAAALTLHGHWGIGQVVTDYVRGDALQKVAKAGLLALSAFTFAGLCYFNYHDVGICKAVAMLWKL
Chain of UniProt D0VWV4 (whole entry, looked up): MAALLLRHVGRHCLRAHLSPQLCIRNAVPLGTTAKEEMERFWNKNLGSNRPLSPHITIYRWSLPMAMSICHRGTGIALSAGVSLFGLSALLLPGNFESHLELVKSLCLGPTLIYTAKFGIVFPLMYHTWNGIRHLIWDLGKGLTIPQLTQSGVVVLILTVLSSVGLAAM
Chain of UniProt Q007T0 (whole entry, looked up): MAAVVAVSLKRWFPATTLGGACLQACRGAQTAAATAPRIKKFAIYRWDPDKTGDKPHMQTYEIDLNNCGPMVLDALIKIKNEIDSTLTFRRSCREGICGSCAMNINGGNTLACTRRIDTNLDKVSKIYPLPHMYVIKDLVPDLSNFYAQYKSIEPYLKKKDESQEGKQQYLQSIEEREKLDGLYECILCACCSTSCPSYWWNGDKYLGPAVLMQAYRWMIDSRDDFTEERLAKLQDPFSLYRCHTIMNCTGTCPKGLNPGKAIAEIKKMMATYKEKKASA
Chain of UniProt P06276 (whole entry, looked up): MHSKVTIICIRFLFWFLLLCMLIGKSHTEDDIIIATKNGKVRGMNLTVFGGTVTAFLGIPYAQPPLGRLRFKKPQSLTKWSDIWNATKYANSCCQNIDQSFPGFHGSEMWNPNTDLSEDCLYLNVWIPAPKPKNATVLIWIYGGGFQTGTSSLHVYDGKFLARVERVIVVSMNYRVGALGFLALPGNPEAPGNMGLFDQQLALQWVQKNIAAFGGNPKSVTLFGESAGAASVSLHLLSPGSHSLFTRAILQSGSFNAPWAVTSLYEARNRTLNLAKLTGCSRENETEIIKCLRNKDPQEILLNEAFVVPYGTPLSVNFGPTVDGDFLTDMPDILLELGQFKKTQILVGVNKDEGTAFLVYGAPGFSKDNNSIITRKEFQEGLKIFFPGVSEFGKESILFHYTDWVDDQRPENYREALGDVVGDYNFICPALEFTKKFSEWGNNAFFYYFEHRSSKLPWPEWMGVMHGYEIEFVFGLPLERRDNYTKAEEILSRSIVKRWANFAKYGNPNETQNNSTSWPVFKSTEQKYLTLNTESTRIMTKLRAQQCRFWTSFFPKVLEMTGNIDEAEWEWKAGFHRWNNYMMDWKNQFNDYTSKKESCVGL
Chain of UniProt P32239 (whole entry, looked up): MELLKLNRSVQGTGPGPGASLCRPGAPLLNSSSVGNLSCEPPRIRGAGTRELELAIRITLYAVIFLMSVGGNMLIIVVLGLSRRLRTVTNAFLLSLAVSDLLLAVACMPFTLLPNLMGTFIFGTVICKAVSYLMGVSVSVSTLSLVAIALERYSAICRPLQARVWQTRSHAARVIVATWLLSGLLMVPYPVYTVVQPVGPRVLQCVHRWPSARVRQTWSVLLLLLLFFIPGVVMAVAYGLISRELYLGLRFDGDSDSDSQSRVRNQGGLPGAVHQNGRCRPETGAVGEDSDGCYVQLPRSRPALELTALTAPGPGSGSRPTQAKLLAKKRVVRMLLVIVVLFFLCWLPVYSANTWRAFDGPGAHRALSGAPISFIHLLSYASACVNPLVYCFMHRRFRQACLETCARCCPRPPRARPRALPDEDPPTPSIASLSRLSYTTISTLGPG
Chain of UniProt Q86Z02 (whole entry, looked up): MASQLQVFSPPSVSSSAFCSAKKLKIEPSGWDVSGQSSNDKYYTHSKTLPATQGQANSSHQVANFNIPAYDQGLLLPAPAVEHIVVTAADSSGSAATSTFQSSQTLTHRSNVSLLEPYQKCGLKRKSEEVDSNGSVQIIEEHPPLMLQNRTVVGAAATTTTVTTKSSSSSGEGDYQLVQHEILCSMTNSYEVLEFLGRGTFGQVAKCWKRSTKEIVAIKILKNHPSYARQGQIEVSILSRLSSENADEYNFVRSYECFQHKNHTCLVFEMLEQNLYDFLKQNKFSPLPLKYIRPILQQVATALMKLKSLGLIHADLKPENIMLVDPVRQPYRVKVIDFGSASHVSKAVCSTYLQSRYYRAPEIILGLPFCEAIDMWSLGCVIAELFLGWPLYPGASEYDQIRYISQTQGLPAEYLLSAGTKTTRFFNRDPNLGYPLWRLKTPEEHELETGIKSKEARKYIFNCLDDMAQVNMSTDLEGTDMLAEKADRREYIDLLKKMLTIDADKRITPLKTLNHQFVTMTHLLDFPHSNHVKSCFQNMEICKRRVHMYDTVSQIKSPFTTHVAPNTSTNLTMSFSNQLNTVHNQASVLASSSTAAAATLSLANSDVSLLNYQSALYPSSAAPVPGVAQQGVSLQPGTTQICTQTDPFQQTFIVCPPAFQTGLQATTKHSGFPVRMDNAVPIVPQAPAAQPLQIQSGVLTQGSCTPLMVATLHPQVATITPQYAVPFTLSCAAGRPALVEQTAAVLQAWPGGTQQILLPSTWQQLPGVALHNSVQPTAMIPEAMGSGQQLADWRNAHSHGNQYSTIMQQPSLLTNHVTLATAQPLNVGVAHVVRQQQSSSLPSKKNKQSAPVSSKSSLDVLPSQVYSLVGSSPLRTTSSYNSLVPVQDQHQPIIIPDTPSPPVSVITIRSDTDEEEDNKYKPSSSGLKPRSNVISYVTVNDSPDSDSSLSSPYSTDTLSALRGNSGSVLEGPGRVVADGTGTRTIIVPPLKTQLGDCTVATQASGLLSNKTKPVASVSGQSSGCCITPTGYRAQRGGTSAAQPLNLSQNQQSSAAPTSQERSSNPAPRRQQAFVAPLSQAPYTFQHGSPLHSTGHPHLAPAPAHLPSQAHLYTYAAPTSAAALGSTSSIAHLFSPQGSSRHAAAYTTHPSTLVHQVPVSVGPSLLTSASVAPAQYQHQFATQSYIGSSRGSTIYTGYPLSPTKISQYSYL
Chain of UniProt P81908 (whole entry, looked up): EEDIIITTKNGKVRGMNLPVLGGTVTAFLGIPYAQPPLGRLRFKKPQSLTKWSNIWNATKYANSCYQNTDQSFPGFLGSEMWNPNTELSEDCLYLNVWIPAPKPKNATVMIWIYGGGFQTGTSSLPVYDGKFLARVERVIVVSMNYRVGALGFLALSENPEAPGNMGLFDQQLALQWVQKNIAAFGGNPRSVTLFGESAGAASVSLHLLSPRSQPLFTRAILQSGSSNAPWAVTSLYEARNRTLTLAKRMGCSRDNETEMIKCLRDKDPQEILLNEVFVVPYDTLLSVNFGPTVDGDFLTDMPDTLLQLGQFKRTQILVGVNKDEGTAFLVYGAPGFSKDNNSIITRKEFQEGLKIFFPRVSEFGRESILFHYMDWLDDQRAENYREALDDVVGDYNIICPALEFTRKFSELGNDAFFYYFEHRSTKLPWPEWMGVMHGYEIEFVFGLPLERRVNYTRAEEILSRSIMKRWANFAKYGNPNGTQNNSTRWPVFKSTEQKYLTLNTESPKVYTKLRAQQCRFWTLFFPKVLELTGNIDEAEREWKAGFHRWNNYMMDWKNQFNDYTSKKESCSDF
Chain of UniProt O70528 (whole entry, looked up): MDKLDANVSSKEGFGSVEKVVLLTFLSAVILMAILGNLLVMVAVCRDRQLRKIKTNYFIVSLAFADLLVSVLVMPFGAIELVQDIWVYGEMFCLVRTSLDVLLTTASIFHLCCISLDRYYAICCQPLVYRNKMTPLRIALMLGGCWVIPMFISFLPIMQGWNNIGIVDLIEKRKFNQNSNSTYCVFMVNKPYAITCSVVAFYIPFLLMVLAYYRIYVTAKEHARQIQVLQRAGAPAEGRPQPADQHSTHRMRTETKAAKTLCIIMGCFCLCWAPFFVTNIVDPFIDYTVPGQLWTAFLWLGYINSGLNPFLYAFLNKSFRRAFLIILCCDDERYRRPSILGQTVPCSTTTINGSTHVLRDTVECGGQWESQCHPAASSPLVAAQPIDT
Chain of UniProt P10768 (whole entry, looked up): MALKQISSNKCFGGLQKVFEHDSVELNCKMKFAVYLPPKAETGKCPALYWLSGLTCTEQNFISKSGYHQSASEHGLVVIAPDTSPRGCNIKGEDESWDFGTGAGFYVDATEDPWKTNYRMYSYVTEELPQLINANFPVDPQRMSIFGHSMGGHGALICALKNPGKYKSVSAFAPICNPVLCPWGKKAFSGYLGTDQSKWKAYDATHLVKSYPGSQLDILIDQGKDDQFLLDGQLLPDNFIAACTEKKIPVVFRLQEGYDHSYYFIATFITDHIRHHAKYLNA
Chain of UniProt P08173 (whole entry, looked up): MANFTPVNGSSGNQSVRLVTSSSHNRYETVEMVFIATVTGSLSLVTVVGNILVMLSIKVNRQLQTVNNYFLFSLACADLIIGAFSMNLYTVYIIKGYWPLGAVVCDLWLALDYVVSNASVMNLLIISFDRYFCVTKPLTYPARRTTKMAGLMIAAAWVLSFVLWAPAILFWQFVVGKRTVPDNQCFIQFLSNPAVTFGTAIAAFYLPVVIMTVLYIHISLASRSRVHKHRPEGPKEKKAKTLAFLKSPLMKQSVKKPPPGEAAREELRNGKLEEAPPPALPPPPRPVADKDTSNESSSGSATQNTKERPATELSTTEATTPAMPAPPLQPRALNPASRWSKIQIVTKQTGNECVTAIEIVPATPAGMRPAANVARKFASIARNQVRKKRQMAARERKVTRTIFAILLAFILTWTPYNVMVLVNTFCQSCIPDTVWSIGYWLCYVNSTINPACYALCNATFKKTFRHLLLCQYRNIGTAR
Chain of UniProt O15540 (whole entry, looked up): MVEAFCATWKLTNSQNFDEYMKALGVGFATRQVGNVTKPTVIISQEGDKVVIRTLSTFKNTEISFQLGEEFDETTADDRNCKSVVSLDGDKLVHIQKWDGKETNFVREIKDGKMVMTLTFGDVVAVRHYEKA

CC1(C)CC(NC(=O)C(=O)Nc2ccc(Cl)cc2)CC(C)(C)N1
binding free energy (Envelope glycoprotein gp160, gp120 (env, Human immunodeficiency virus type 1 group M subtype B, UniProt P35961); urea denaturation, Trp fluorescence; PBS; 50 µM, pH 7.5): -7.2 kcal/mol

COc1ccc(N2C(=O)N(c3c(C)cccc3Cl)Cc3cnc(Nc4ccc(C5CCN(C)CC5)cc4OC)nc32)nc1
inhibition (FES (Homo sapiens, UniProt P07332); kinase activity; 0.5 µM): 93%

Nc1ncnc2c1ncn2[C@@H]1O[C@H](COP(=O)(O)OP(=O)(O)O)[C@@H](O)[C@H]1O
ΔS (Cell cycle histidine kinase CckA, G318A; cytoplasmic region (Caulobacter vibrioides, UniProt Q9X688, G318A); binding, ITC; with: without c-di-GMP): 15.2 cal/mol/K

O=C(Nc1cccnn1)N1CCC(=Cc2cccc(Oc3ccc(C(F)(F)F)cn3)c2)CC1
inhibition (CCKBR (Homo sapiens, UniProt P32239); radioligand binding; concentration not given): 5% and 9%

C[C@H]1CN(c2n[nH]c3nc(N[C@H]4CC[C@H](NS(=O)(=O)CCC(F)(F)F)CC4)ncc23)CCO1
relative abundance (HSD17B4 (Homo sapiens, UniProt P51659); inhibitor, Kinobeads competition profiling; 0.032 µM; relative to: vehicle): 1

COc1ccc2[nH]c3c(c2c1)CCN(C)CC3.Cl
Hill coefficient (Voltage-dependent N-type calcium channel subunit alpha-1B (Homo sapiens, UniProt Q00975); barium current, inhibitor, whole-cell patch clamp; HEK293T): 1.4 ± 0.7

COc1cccc(OC)c1C(=O)N[C@@H]1C(=O)N2[C@@H]1SC(C)(C)[C@@H]2C(=O)O
kinact/KI (Penicillin-binding protein 2B (Streptococcus pneumoniae, UniProt P0A3M6); inhibitor): 780 ± 65 M⁻¹ s⁻¹

CC1(C)CC(=O)c2c(nc3c(c(C#N)cn3Cc3ccccc3)c2-c2ccc(F)cc2)C1
IC50 fold change (Gag-Pol polyprotein, reverse transcriptase (gag-pol, Human immunodeficiency virus type 1 group M subtype B, UniProt P04585); DNA polymerase activity, inhibitor, FRET; relative to: mutant over wild type RT): 3.9

Nc1nc2c(ncn2[C@@H]2O[C@H](COP(=O)(O)OP(=O)(O)O[C@H]3O[C@H](CCO)C(=O)[C@@H](O)[C@@H]3O)[C@@H](O)[C@H]2O)c(=O)[nH]1
Km (C4-reductase HS:23, Campylobacter jejuni; substrate; pH 7.5, 25 °C, substrate formed in situ, with: C3-epimerase excess, NADPH 300 µM): 22 ± 8 µM

Cc1cc(N2CCNCC2)nc2ccccc12
Emax (CHRM4 (Homo sapiens, UniProt P08173); ERK1/2 phosphorylation, agonist; CHO cells): < 10%

O=C(Nc1ccccc1)OCC(CN1CCCCC1)OC(=O)Nc1ccccc1 (centres unmarked)
efficacy (Cholinesterase (BCHE, Homo sapiens, UniProt P06276); concentration not given, Triton): -90.5 ± 5.68%

O=C(c1ccc(Cl)cc1)N1CCN2C(=O)N(OC(=O)N3CCOc4ccccc43)C(=O)C2C1 (centres unmarked)
mean protein ratio (S-formylglutathione hydrolase (Homo sapiens, UniProt P10768); MS-based ABPP; SW-620 conditioned medium; 10 µM, 1 h, 37 °C; relative to: treated over control): 1.26

CCN(CC)C(=O)Oc1ccc(CCC(=O)N2CCC(Cc3ccccc3)CC2)cc1OC
selectivity ratio (Cholinesterase (BCHE, Equus caballus, UniProt P81908); Ellman; equine serum BuChE; relative to: AChE IC50 over BuChE IC50): 3.3

COc1cc(Nc2ncc(F)c(Nc3ccc4c(n3)NC(=O)C(C)(C)O4)n2)cc(OC)c1OC
IC50 (PTPRC (Homo sapiens, UniProt P08575); CD45): > 10000 nM

Nc1ncc(-c2nc(N3CCOCC3)nc(N3CCOCC3)n2)c(C(F)F)n1
remaining binding (sodium channel site 2; radioligand binding, antagonist ligand; 10 µM; relative to: control): 104%

O=C(O)c1ccc2nc(-c3cc(Cl)cc(Cl)c3)oc2c1
probe binding remaining (Transthyretin (TTR, Homo sapiens, UniProt P02766); fluorescent probe exclusion; human serum; 10 µM, 1 days, ratio 6:00:00): 16% and 19.6% and 13.9%

N=C(N)NC(=O)Cc1c(Cl)cccc1Cl
IC50 (Plasmodium falciparum; HB3): 2000 nM

O=C(Nc1cnccc1Cl)N1CCN(Cc2ccc3c(c2)OC(F)(F)O3)CC1
inhibition (GABAA receptor chloride channel, rat; binding; 50 µM, with: [3H]TBOB): 43%

CC(N)C(=O)OC(C)(C)Cc1ccc(Cl)cc1 (centres unmarked)
IC50 (Plasmodium falciparum; W2): 1260 nM

CCCCCCCCCCC1=C(N(C)C)C(=O)c2ccccc2C1=O
P+QA− recombination rate (Reaction center protein M chain, QA site (pufM, Cereibacter sphaeroides, UniProt P0C0Y9); charge recombination; Rhodobacter sphaeroides, LDAO detergent solution; pH 7.8, 298 K, quinone reconstituted in QA site): 550 s⁻¹

O=C(O)C(F)(F)OC(F)(F)C(F)(F)OC(F)(F)C(F)(F)OC(F)(F)C(F)(F)C(F)(F)C(F)(F)F
fold change (Fatty acid-binding protein, brain (Homo sapiens, UniProt O15540); binding, affinity selection mass spectrometry; 100 nM, pooled screen; relative to: other proteins): 54

CN(C)C(=O)Oc1ccc[n+](C)c1
efficacy (Cholinesterase (BCHE, Homo sapiens, UniProt P06276); concentration not given, Triton): -86.2 ± 16.1%

CO[C@H]1C[C@@H]2CC[C@@H](C)[C@@](O)(O2)C(=O)C(=O)N2CCCC[C@H]2C(=O)O[C@H]([C@H](C)C[C@@H]2CC[C@@H](OC(=O)NCCOCCOCCOCCOCCOCCOCCOCCOCCC(=O)N3CCc4cc(Cn5nc(-c6ccc7oc(N)nc7c6)c6c(N)ncnc65)ccc4C3)[C@H](OC)C2)C[C@@H](O)[C@H](C)/C=C(\C)[C@@H](O)[C@@H](OC)C(=O)[C@H](C)C[C@H](C)/C=C/C=C/C=C/1C
anaemia incidence (patients with advanced solid tumours; intravenous, 6 mg weekly, any grade): 25%

Cc1ccc(CCn2c3c(c4cc(Cl)ccc42)CN(C)CC3)cn1
efficacy (Cholinesterase (BCHE, Homo sapiens, UniProt P06276); concentration not given, Triton): -95.2 ± 7.02%

CCCCC/C=C\C/C=C\C/C=C\C/C=C\CCCC(=O)NCCO
Hill coefficient (Trpv1 (Mus musculus, UniProt Q704Y3, T551S); ion current, agonist, whole-cell patch clamp; T551S): 3.12 ± 0.17

CN1CCN(c2cc(-c3ccncc3)c(-c3ccc4ccccc4c3)nn2)CC1
activation (Proteinase-activated receptor 2, trypsin-activated (F2RL1, Homo sapiens, UniProt P55085); agonist, FLIPR; 12.5 µM): -3.2%

C=C(CN(C(=O)c1c(C(F)F)nn(C)c1F)C1CC1)c1ccc(Cl)cc1Cl
reaction velocity (SDHD/SDHC/SDHB (Sus scrofa, UniProt A5GZW8+D0VWV4+Q007T0); enzyme activity, inhibitor, DCIP reduction; pig; 0.06 µM, with: DCIP 160 µM): 0.0295 µM/s and 0.0309 µM/s and 0.0307 µM/s

CN[C@@H]1C[C@H]2O[C@@](C)([C@@H]1OC)n1c3ccccc3c3c4c(c5c6ccccc6n2c5c31)C(=O)NC4
ΔTm (AKT1 (Homo sapiens, UniProt P31749); binder, NanoLuc thermal shift; permeabilized HeLa, Nluc fusion): 1.5 °C

CN(C(=O)n1cnc(-c2ccc[n+]([O-])c2)c1)C1CCCCC1
inhibition (HTR4 (Cavia porcellus, UniProt O70528); radioligand binding; 10 µM, with: [3H]GR-113808): 5%

Cc1cc(O)cc(C)c1C[C@H](C)C(=O)N[C@@H]1C/C=C/CC[C@@H](C(N)=O)NC(=O)[C@H](Cc2ccccc2)NC(=O)[C@H](Cc2ccccc2)NC1=O
Ke (Mu-type opioid receptor (Cavia porcellus, UniProt A0ACM8Q262); antagonist; guinea pig ileum; µ opioid): 157 nM

[2H]c1c([2H])c([C@]2([2H])CCCN2C(=O)C(C)(C)Oc2ccc3cn[nH]c3c2)c([2H])c([2H])c1C([2H])([2H])[2H]
remaining binding (HIPK1 (Homo sapiens, UniProt Q86Z02); KINOMEscan; 1 µM; relative to: DMSO control): 86%

O=c1c2ccccc2oc2cc(OCCCCc3ccccc3)ccc12
reaction velocity (ache (Electrophorus electricus, UniProt O42275); enzyme activity; 2.91 µM, with: substrate 0.43 mM; higher = faster reaction): 0.0005 a.u.
